Measured values collected from several papers.
Lines come from different studies, so protocols differ. Values joined by “and” are separate records of one study, mostly repeats; a detail may differ. ± gives the spread as reported.
UDP-3-O-acyl-N-acetylglucosamine deacetylase C40S: UDP-3-O-acyl-N-acetylglucosamine deacetylase (Pseudomonas aeruginosa, UniProt P47205, C40S)
blaNDM-1: Metallo-beta-lactamase type 2 (blaNDM-1, Klebsiella pneumoniae, UniProt C7C422)
Sequence of UniProt P27361 (whole entry, looked up): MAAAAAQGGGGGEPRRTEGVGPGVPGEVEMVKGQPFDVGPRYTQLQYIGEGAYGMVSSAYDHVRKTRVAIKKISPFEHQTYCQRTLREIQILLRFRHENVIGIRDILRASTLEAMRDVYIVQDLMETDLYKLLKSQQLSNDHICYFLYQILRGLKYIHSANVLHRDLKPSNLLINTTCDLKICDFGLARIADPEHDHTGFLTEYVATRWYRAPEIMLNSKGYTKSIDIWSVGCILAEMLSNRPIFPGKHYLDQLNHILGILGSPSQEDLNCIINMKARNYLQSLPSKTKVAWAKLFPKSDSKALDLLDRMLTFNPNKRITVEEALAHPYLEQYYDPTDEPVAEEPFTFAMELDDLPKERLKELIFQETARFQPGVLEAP
Sequence of UniProt P20782 (whole entry, unmodified, looked up): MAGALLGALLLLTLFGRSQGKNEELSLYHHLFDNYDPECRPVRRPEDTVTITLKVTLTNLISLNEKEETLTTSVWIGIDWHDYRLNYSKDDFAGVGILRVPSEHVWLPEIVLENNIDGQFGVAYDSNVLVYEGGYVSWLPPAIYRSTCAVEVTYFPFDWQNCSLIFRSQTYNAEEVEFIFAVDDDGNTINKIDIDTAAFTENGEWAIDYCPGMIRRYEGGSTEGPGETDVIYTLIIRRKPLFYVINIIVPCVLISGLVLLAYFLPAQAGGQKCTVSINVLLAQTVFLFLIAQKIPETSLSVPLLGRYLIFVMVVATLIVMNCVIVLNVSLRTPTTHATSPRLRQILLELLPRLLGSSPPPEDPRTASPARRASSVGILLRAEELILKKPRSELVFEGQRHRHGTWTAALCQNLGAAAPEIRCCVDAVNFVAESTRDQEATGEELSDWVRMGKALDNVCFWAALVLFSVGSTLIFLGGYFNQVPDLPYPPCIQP
Sequence of UniProt P37088 (whole entry, looked up): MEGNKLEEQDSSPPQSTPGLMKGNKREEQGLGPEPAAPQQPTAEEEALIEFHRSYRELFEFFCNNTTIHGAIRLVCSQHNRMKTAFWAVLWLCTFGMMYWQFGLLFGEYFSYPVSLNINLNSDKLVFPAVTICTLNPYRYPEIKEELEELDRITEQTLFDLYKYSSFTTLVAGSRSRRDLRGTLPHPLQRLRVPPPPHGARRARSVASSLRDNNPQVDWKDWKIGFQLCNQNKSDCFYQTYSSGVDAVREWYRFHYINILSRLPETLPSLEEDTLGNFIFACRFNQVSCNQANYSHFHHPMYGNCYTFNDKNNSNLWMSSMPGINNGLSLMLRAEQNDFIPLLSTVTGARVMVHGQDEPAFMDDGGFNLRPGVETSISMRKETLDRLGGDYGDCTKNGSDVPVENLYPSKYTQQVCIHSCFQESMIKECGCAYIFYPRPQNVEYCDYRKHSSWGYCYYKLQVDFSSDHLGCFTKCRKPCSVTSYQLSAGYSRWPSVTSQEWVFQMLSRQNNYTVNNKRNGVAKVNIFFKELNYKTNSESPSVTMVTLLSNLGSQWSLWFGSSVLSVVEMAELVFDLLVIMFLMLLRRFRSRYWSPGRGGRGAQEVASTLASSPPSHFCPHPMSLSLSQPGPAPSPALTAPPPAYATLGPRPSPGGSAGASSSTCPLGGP
Sequence of UniProt P21397 (whole entry, looked up): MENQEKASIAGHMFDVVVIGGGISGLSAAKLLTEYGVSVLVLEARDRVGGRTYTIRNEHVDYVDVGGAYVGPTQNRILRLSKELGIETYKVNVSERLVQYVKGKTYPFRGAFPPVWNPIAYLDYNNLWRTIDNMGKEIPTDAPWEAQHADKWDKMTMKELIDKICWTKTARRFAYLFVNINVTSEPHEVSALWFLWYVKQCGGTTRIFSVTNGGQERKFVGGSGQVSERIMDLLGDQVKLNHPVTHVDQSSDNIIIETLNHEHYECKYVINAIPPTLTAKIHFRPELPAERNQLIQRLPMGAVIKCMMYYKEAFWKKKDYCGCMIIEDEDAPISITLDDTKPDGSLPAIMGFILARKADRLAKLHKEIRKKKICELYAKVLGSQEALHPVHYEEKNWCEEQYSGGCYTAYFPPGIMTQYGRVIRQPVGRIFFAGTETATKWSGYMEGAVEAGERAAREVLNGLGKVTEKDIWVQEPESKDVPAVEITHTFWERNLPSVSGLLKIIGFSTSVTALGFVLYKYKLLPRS
Sequence of UniProt P49753 (whole entry, looked up): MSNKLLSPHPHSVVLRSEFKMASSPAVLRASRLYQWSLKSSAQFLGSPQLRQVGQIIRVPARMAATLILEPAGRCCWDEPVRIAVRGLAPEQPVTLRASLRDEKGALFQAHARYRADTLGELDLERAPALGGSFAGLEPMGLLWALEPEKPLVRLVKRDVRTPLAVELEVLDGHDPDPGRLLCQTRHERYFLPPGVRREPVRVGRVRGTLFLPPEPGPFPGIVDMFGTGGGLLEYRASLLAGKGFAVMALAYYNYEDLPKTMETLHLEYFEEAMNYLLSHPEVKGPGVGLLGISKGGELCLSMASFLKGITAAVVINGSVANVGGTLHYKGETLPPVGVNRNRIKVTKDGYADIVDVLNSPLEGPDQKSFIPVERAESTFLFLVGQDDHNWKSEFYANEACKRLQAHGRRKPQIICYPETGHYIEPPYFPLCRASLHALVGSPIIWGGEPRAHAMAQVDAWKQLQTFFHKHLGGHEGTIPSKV
Sequence of UniProt P04756 (whole entry, unmodified, looked up): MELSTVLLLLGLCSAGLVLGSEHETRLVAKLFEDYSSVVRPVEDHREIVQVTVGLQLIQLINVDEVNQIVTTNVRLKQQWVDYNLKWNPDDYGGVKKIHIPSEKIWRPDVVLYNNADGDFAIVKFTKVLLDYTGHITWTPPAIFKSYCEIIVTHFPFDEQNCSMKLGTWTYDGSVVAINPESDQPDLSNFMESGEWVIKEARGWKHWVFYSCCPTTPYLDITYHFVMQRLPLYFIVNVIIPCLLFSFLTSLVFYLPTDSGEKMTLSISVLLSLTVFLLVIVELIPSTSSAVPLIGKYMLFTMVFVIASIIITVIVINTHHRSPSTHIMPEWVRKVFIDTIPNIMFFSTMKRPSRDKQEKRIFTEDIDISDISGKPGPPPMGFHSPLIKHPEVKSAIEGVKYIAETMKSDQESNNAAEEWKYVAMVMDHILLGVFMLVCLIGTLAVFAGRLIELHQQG
Sequence of UniProt Q14994 (whole entry, looked up): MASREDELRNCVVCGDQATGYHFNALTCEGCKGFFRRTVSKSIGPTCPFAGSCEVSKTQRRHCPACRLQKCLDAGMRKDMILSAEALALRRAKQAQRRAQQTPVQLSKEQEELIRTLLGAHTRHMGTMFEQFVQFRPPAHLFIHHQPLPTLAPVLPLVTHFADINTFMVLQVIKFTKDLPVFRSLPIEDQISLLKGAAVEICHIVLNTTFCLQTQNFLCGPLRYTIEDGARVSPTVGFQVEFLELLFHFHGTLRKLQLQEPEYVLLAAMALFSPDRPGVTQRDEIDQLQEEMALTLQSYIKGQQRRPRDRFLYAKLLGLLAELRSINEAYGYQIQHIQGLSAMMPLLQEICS
Sequence of UniProt P41738 (whole entry, looked up): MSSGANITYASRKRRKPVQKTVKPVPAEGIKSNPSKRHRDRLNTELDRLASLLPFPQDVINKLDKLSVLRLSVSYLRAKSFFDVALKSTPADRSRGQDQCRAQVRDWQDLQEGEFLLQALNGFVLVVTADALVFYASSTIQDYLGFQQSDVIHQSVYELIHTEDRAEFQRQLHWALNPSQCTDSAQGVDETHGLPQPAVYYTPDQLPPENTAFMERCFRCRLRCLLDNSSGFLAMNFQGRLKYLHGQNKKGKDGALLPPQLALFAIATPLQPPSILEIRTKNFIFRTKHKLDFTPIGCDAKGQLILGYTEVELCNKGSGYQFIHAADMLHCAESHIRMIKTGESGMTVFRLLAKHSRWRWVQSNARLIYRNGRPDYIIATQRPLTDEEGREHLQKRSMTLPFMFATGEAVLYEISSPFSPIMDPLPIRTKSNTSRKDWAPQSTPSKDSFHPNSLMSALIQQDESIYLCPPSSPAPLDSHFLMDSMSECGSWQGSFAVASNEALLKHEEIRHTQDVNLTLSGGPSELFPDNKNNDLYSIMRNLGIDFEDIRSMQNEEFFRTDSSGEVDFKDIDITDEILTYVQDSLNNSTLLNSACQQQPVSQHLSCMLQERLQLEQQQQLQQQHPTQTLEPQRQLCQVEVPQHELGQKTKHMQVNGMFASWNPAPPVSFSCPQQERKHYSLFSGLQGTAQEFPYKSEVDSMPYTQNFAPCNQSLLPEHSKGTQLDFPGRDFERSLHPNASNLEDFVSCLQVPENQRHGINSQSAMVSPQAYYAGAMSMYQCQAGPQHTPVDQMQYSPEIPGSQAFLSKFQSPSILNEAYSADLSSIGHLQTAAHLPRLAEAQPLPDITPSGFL
Sequence of UniProt C6WFL3 (whole entry, looked up): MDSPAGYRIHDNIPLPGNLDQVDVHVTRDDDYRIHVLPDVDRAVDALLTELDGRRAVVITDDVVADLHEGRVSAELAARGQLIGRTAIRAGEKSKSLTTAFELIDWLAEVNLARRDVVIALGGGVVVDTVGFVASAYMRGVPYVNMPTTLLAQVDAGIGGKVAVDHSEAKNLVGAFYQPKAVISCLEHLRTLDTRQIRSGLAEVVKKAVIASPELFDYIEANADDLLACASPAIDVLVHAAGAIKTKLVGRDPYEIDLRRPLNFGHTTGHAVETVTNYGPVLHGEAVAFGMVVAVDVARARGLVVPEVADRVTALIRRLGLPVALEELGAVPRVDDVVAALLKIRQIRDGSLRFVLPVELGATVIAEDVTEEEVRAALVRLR
Sequence of UniProt Q16816 (whole entry, looked up): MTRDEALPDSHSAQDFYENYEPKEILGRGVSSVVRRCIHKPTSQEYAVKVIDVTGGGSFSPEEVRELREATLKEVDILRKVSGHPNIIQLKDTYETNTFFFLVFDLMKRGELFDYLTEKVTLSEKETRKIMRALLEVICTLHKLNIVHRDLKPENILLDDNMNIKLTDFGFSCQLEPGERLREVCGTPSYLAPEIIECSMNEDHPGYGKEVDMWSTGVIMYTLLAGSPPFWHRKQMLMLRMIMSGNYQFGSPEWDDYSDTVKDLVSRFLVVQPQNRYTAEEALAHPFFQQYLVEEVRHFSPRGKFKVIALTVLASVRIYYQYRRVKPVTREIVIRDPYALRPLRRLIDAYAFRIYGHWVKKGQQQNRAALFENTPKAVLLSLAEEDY

Compound | target | assay | system | conditions | scale | quantity | value
C/C=C1/C(=O)C[C@H]2[C@@H]3CCC4=CC(=O)CC[C@]4(C)[C@H]3CC[C@]12C | Nuclear receptor subfamily 1 group I member 3 (Homo sapiens, UniProt Q14994) | coactivator recruitment |  |  |  | IC50 | inactive
COc1cc(Nc2ncc(F)c(Nc3ccc4c(n3)NC(=O)C(C)(C)O4)n2)cc(OC)c1OC | PKMYT1 (Homo sapiens, UniProt Q99640) | KINOMEscan |  | 10 µM |  | inhibition | 30%
CCOC(=O)COc1ccc2c(=O)c3ccccc3oc2c1 | ache (Electrophorus electricus, UniProt O42275) | enzyme activity |  | 1.68 µM, with: substrate 0.43 mM | higher = faster reaction | reaction velocity | 0.0006 a.u.
NC[C@H](NC(=O)c1ccc(-c2ccc(Br)cc2)cc1)C(=O)NO | UDP-3-O-acyl-N-acetylglucosamine deacetylase C40S | ITC |  | concentration not given, 298 K |  | -TΔS of binding | -42.7 kJ/mol
[2H]c1c([2H])c([C@]2([2H])CCCN2C(=O)C(C)(C)Oc2ccc3cn[nH]c3c2)c([2H])c([2H])c1C([2H])([2H])[2H] | MAP3K12 (Homo sapiens, UniProt Q12852) | KINOMEscan |  | 1 µM | reference: DMSO control | remaining binding | 100%
O=C1CC(C(=O)O)NC(=O)N1 (centres unmarked) | Dihydroorotate dehydrogenase A (fumarate) (pyrDA, Lactococcus lactis subsp. cremoris, UniProt A2RJT9, L71F) | flavin reduction, stopped-flow | Lactococcus lactis | pH 8.5, 4 °C |  | kred | 0.015 ± 0.002 s⁻¹
C=CCn1cc(-c2ccc(-c3ccn(CCC(C)(C(=O)NO)S(C)(=O)=O)c(=O)c3)cc2)nn1 (centres unmarked) | UDP-3-O-acyl-N-acetylglucosamine deacetylase (Pseudomonas aeruginosa, UniProt P47205) | fluorescence |  | 37 °C |  | residence time | 82.8 ± 26 min
CC[C@H](C)[C@H](NC(=O)[C@@H](NC(=O)[C@H](CC(C)C)NC(=O)[C@H](CC(N)=O)NC(=O)[C@H](CC(=O)O)NC(=O)[C@H](CCC(=O)O)NC(=O)[C@@H](NC(=O)[C@@H](N)CCCNC(=N)N)[C@@H](C)CC)C(C)C)C(=O)N[C@H](C(=O)N[C@@H](CCCNC(=N)N)C(=O)O)[C@@H](C)CC | Epithelial sodium channel subunit alpha (Homo sapiens, UniProt P37088) | binding, bio-layer interferometry |  |  |  | koff | 0.158 s⁻¹
O=C(Nc1cccnn1)N1CCC(=Cc2cccc(Oc3ccc(C(F)(F)F)cn3)c2)CC1 | MAOA (Homo sapiens, UniProt P21397) | enzyme activity, inhibitor |  | 50 µM, human, with: kynuramine substrate |  | inhibition | 47%
COc1ccc(N2C(=O)N(c3c(C)cccc3Cl)Cc3cnc(Nc4ccc(C5CCN(C)CC5)cc4OC)nc32)nc1 | PHKG1 (Homo sapiens, UniProt Q16816) | kinase activity, inhibitor |  | 0.5 µM, kinase PHK-GAMMA1 |  | inhibition | 8%
c1cncc([C@@H]2CCCN2)c1 | Chrnd/Chrna1/Chrne (Mus musculus, UniProt P02716+P04756+P20782, G173K/S470W) | single-channel kinetics |  | K chain side site |  | koff | 618 s⁻¹
CC1(C)C(C=C(Cl)Cl)C1C(=O)OCc1cccc(Oc2ccccc2)c1 (centres unmarked) | uncharacterized protein (Anopheles coluzzii, UniProt A0A6E8VQK1) | enzyme activity, inhibitor | Sf9 cell homogenate | 9.302 µM, 0.1667 h, with: α-naphthyl acetate substrate | reference: no inhibitor | remaining activity | 96.2%
C[C@@H](O)[C@H](NC(=O)c1ccc(-c2ccccc2)cc1)C(=O)NO | UDP-3-O-acyl-N-acetylglucosamine deacetylase C40S | ITC |  | concentration not given, 298 K |  | -TΔS of binding | -18.1 kJ/mol
O=C(Nc1cnccc1Cl)N1CCN(Cc2ccc3c(c2)OC(F)(F)O3)CC1 | ryanodine receptor RyR3, rat | binding |  | 10 µM, with: [3H]ryanodine |  | inhibition | 7%
O=[N+]([O-])c1ccc(O[P@](=O)(Oc2ccccc2)OC2CCCCC2)cc1 | had (Sphingobium sp. TCM1, UniProt A0A077JBW9) |  |  |  |  | Km | 260 ± 30 µM
CCCCC/C=C\C/C=C\C/C=C\C/C=C\CCCC(=O)NCCO | Trpv1 (Mus musculus, UniProt Q704Y3, N552Q) | ion current, agonist, whole-cell patch clamp |  | N552Q | reference: 3 mM 2-APB | maximal open probability | 0.83 ± 0.16
CC(C)OC(=O)[C@H](C)NP(=S)(Oc1ccc(CCN2CCOCC2)cc1)c1ccccc1 (some centres unmarked) | CTSA (Homo sapiens, UniProt P10619) | substrate, LC-MS/MS |  | 5 µM, pH 7.4, 37 °C |  | degradation rate constant | 0.93 h⁻¹
COC(=O)[C@@]1(O)C[C@H]2O[C@]1(C)n1c3ccccc3c3c4c(c5c6ccccc6n2c5c31)C(=O)NC4 | MAPK3 (Homo sapiens, UniProt P27361) | ADP-Glo |  | 1.43 µM, with: MBP substrate |  | kinase activity | 119% and 106% and 96.8%

Compound | target | assay | system | conditions | scale | quantity | value
O=C(O)c1cccc(C(N(Cc2ccccc2)C(=O)c2cccs2)P(=O)(O)O)n1 (centres unmarked) | blaNDM-1 | inhibitor |  | with: nitrocefin |  | dissociation half-life | 9.1 ± 0.4 min
Clc1cc2c(cc1Cl)Oc1cc(Cl)c(Cl)cc1O2 | Ahr (Rattus norvegicus, UniProt P41738) | reporter gene, agonist |  | 384-well format |  | Hill slope | 47.3
CCC(CNc1nc(-c2cn3ccnc3cc2C)nc2ccccc12)c1ccccc1 (centres unmarked) | SLC6A3 (Homo sapiens, UniProt Q01959) | [3H]dopamine uptake, inhibitor | CHO-K1 expressing transporter |  |  | Emax | 68.4 ± 8.56%
CC[C@H](C)[C@H](NC(=O)CNC(=O)[C@@H](N)CCCCN)C(=O)N[C@@H](CC(C)C)C(=O)N[C@@H](CCCCN)C(=O)N[C@@H](CC(N)=O)C(=O)N[C@@H](CCCNC(=N)N)C(=O)N[C@@H](C)C(=O)N[C@@H](CCCNC(=N)N)C(=O)N[C@@H](CCCNC(=N)N)C(=O)N[C@@H](CCC(=O)O)C(=O)N[C@@H](CCCNC(=N)N)C(=O)N1CCC[C@H]1C(=O)NCC(=O)N[C@@H](CCCCN)C(=O)N[C@@H](CCCNC(=N)N)C(=O)N[C@@H](CCCCN)C(=O)N[C@H](C(=O)N[C@H](C(=O)N[C@H](C(=O)N[C@@H](Cc1c[nH]c2ccccc12)C(=O)N1CCC[C@H]1C(=O)N[C@@H](CCC(=O)O)C(=O)N[C@@H](CCC(=O)O)C(=O)NCC(=O)N[C@@H](CCCCN)C(=O)N[C@@H](CC(C)C)C(=O)N[C@@H](CCCNC(=N)N)C(=O)N[C@@H](CCC(=O)O)C(=O)N[C@@H](Cc1ccc(O)cc1)C(=O)N[C@@H](Cc1ccccc1)C(=O)N[C@@H](Cc1ccc(O)cc1)C(=O)N[C@@H](Cc1ccccc1)C(=O)N[C@@H](CCC(=O)O)C(=O)N[C@@H](CC(C)C)C(=O)N[C@@H](CC(=O)O)C(=O)N[C@@H](CCC(=O)O)C(=O)N[C@H](C(=O)N[C@@H](CCC(=O)O)C(=O)N[C@@H](CCCNC(=N)N)C(=O)N[C@H](C(=O)N[C@@H](CC(N)=O)C(=O)N[C@H](C(=O)O)C(C)C)C(C)C)[C@@H](C)O)[C@@H](C)O)C(C)C)[C@@H](C)O | PPP1CA (Homo sapiens, UniProt P62136) | binding, isothermal titration calorimetry |  | concentration not given, 25 °C, PP1α residues 7-330 |  | enthalpy change ΔH | -133 ± 5.02 kJ/mol
CC12CCC(CC1)C(C)(C)O2 | 1,8-cineole 2-endo-monooxygenase (cinA, Citrobacter braakii, UniProt Q8VQF6) | substrate, GC-MS |  | 0 to 2 min, wild-type enzyme variant |  | product formation rate | 248 ± 28 min⁻¹
O=C(O)CCC(=O)C(=O)O | HIF1AN (Homo sapiens, UniProt Q9NWT6, E105A) | cosubstrate |  | pH 7.00, 37.0 °C, mutant E105A, with: CTAD peptide 100 µM, cosubstrate 217 µM |  | apparent kcat | 0.383 ± 0.05 s⁻¹
C[C@]12CC[C@H]3[C@@H](CCC4=CC(=O)CC[C@@]43C)[C@@H]1CC[C@@H]2C(=O)CO | CYP11B2 (Homo sapiens, UniProt P19099, A320V) |  |  |  |  | k−2 | 0.62 ± 0.06 s⁻¹
CN(C(=O)n1cnc(-c2ccc[n+]([O-])c2)c1)C1CCCCC1 | LTB4R (Homo sapiens, UniProt Q15722) | radioligand binding |  | 50 µM, with: [3H]LTB4 |  | inhibition | -11%
C[C@H]1CN(c2n[nH]c3nc(N[C@H]4CC[C@H](NS(=O)(=O)CCC(F)(F)F)CC4)ncc23)CCO1 | Tight junction protein 1 (TJP1, Homo sapiens, UniProt Q07157) | Kinobeads competition, refers to: TJP1 |  | 0.032 µM, unit not given | reference: vehicle | remaining binding | 1.09
O=C(c1ccc(Cl)cc1)N1CCN2C(=O)N(OC(=O)N3CCOc4ccccc43)C(=O)C2C1 (centres unmarked) | Acyl-coenzyme A thioesterase 2, mitochondrial (ACOT2, Homo sapiens, UniProt P49753) | enzyme activity, inhibitor, MS-based ABPP | SW-620 in situ | 10 µM, 2 h, 37 °C | reference: compound over DMSO, lower = stronger inhibition | median ratio | 1.09
CN1CCN(c2cc(-c3ccncc3)c(-c3ccc4ccccc4c3)nn2)CC1 | MCHR2 (Homo sapiens, UniProt Q969V1) | agonist, FLIPR |  | 12.5 µM |  | activation | 7.3%
O=C(O)COP(=O)(O)O | TPI1 (Saccharomyces cerevisiae, UniProt P00942, S211G/Y208T) | enzyme activity, competitive inhibitor, GPDH/NADH-coupled |  | pH 4.9, 25 °C, ionic strength 0.1 NaCl, with: glyceraldehyde 3-phosphate substrate | reference: mutant over wild type | Ki ratio | 26
Cc1ncc(C)n2nc(/C=C/c3nc(N4CCCC4)cc(N4CCOCC4)n3)nc12 | human androgen receptor | radioligand binding |  | 10 µM |  | inhibition | 5%
CC(C)(O/N=C(\C(=O)N[C@@H]1C(=O)N2C(C(=O)[O-])=C(C[N+]3(CCNC(=O)c4ccc(O)c(O)c4Cl)CCCC3)CS[C@H]12)c1csc(N)n1)C(=O)O | blaNDM-1 | tryptophan fluorescence, substrate, stopped-flow fluorescence |  | pH 7.5, 10 °C |  | fluorescence recovery time | 1 s
CN(CC(=O)O)C(=N)NP(=O)(O)O | CKMT1A (Homo sapiens, UniProt P12532, E264A) | substrate, Kinase-Glo luminescence |  | pH 7.0, reverse reaction, E226A mutant, with: second substrate in excess |  | kcat | < 0.0001 s⁻¹
O=P(O)(O)OC[C@H]1C[C@@](O)(CO)[C@@H](O)[C@H](O)[C@@H]1O | 2-epi-valiolone synthase (Actinosynnema mirum, UniProt C6WFL3) | phosphate release |  | 10 µM |  | apparent Vmax | 2.1 ± 0.2 µM/min
Cc1ccc(OP(=O)(Oc2ccc(C)cc2)Oc2ccc(C)cc2)cc1 | Acylamino-acid-releasing enzyme (Apeh, Mus musculus, UniProt Q8R146) |  | mouse | dose not given |  | enzyme activity | decreased

For quick reference, copied from above:
Compound | target | assay | system | conditions | scale | quantity | value
CC12CCC(CC1)C(C)(C)O2 | 1,8-cineole 2-endo-monooxygenase (cinA, Citrobacter braakii, UniProt Q8VQF6) | substrate, GC-MS |  | 0 to 2 min, wild-type enzyme variant |  | product formation rate | 248 ± 28 min⁻¹
CC[C@H](C)[C@H](NC(=O)CNC(=O)[C@@H](N)CCCCN)C(=O)N[C@@H](CC(C)C)C(=O)N[C@@H](CCCCN)C(=O)N[C@@H](CC(N)=O)C(=O)N[C@@H](CCCNC(=N)N)C(=O)N[C@@H](C)C(=O)N[C@@H](CCCNC(=N)N)C(=O)N[C@@H](CCCNC(=N)N)C(=O)N[C@@H](CCC(=O)O)C(=O)N[C@@H](CCCNC(=N)N)C(=O)N1CCC[C@H]1C(=O)NCC(=O)N[C@@H](CCCCN)C(=O)N[C@@H](CCCNC(=N)N)C(=O)N[C@@H](CCCCN)C(=O)N[C@H](C(=O)N[C@H](C(=O)N[C@H](C(=O)N[C@@H](Cc1c[nH]c2ccccc12)C(=O)N1CCC[C@H]1C(=O)N[C@@H](CCC(=O)O)C(=O)N[C@@H](CCC(=O)O)C(=O)NCC(=O)N[C@@H](CCCCN)C(=O)N[C@@H](CC(C)C)C(=O)N[C@@H](CCCNC(=N)N)C(=O)N[C@@H](CCC(=O)O)C(=O)N[C@@H](Cc1ccc(O)cc1)C(=O)N[C@@H](Cc1ccccc1)C(=O)N[C@@H](Cc1ccc(O)cc1)C(=O)N[C@@H](Cc1ccccc1)C(=O)N[C@@H](CCC(=O)O)C(=O)N[C@@H](CC(C)C)C(=O)N[C@@H](CC(=O)O)C(=O)N[C@@H](CCC(=O)O)C(=O)N[C@H](C(=O)N[C@@H](CCC(=O)O)C(=O)N[C@@H](CCCNC(=N)N)C(=O)N[C@H](C(=O)N[C@@H](CC(N)=O)C(=O)N[C@H](C(=O)O)C(C)C)C(C)C)[C@@H](C)O)[C@@H](C)O)C(C)C)[C@@H](C)O | PPP1CA (Homo sapiens, UniProt P62136) | binding, isothermal titration calorimetry |  | concentration not given, 25 °C, PP1α residues 7-330 |  | enthalpy change ΔH | -133 ± 5.02 kJ/mol
CN(CC(=O)O)C(=N)NP(=O)(O)O | CKMT1A (Homo sapiens, UniProt P12532, E264A) | substrate, Kinase-Glo luminescence |  | pH 7.0, reverse reaction, E226A mutant, with: second substrate in excess |  | kcat | < 0.0001 s⁻¹
[2H]c1c([2H])c([C@]2([2H])CCCN2C(=O)C(C)(C)Oc2ccc3cn[nH]c3c2)c([2H])c([2H])c1C([2H])([2H])[2H] | MAP3K12 (Homo sapiens, UniProt Q12852) | KINOMEscan |  | 1 µM | reference: DMSO control | remaining binding | 100%
COc1cc(Nc2ncc(F)c(Nc3ccc4c(n3)NC(=O)C(C)(C)O4)n2)cc(OC)c1OC | PKMYT1 (Homo sapiens, UniProt Q99640) | KINOMEscan |  | 10 µM |  | inhibition | 30%
CC1(C)C(C=C(Cl)Cl)C1C(=O)OCc1cccc(Oc2ccccc2)c1 (centres unmarked) | uncharacterized protein (Anopheles coluzzii, UniProt A0A6E8VQK1) | enzyme activity, inhibitor | Sf9 cell homogenate | 9.302 µM, 0.1667 h, with: α-naphthyl acetate substrate | reference: no inhibitor | remaining activity | 96.2%
